# Published values of several laboratories.
# Parts stem from different laboratories: compare values within a part only.

# Block 1
# Target: Interferon regulatory factor 5, full length, phosphomimetic (IRF5, Homo sapiens, UniProt Q13568-2, residues 1-514, S451D/S453D/S456D/S462D)
# Technique: protein-binding microarray
# Form: double-stranded DNA, one strand shown
# Medium: in vitro
# Tested at: 940 nM top
# Notes: 60-bp whole probe
# Added: salmon DNA 0.4 mg/ml
# Reference: random background probes
# Direction: higher = stronger binding
# Shared flanks, not repeated: GCCTAGCAC … GTCTTGATTCGCTTGACGCTGCTG
Sequence,fitted relative affinity [z-score]
TCATTTCTACTGTCTGTTACTGTGCTA,1.15
TTAGGACTGCTTTTCCTTGAGTGCTAG,-0.233
TTAGAACTAAGTCTCGATTAGTGCTAG,1.93
TTAGAACTGAGGCTGGATTAGTGCTAG,-0.611
GATGGTTTCGACACTGGGGACGTGCTA,8.04
TTAGAACTGAGGTTCGATTAGTGCTAG,-0.281
TTATATTTCAGTATCGATTAGTGCTAG,6.71
GACGAACTGAGTATCCAGACGTGCTAG,-0.504
TACCTTTTCACTTTACACACGTGCTAG,1.78
GACGGTCTCAGACTGGGGACGTGCTAG,-0.104
TTAGGTATCCTTATCCTCTAGTGCTAG,0.273
TTAGGACTGGACTATAGGTTAGTGCTA,-0.31
GACTAACTGAGTCTCGAGACGTGCTAG,0.831
AACGGTTTCGGACTGGGGACGTGCTAG,6.42
TTAGAACTGAGTATGGATTAGTGCTAG,-0.101
TTTGATCTCAGTATCGATTAGTGCTAG,5.23
TCACCTGTCCTTTTCTTACTGTGCTAG,1.6
GACGAACTGAGTATCGAGTCGTGCTAG,2.17

# Block 2
# Target: Histone acetyltransferase KAT6A, both winged helices, GST fusion (KAT6A, Homo sapiens, UniProt Q92794, residues 1-181)
# Technique: protein binding microarray
# Form: double-stranded DNA, one strand shown
# Medium: in vitro
# Tested at: not given
# Notes: 8-mer, flanks averaged, mean of 2 arrays, mostly near background
# Reference: not given
# Direction: higher = stronger binding
# Target sequence (chain): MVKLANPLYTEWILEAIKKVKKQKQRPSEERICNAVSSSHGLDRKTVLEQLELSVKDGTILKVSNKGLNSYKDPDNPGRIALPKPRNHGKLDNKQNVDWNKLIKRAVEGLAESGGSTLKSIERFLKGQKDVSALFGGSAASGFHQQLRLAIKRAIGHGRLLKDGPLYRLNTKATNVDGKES
Sequence,E-score
ATGCTTAC,-0.116
AGTATATC,-0.121
GATTCGGA,-0.0769
CGCCGACA,0.314
ACCAGATC,-0.0378
ATGATCTC,-0.141
CGCAGTGA,0.199
AGTTTAAC,-0.102
CAAGCATC,-0.058
CGGACGAC,0.251
TACACCTA,-0.202
CCCAACTA,-0.273
AAATGTCT,-0.0318
GAGGTCCA,-0.1
CGCGACTA,0.194
CGCGCCAA,0.33
AATGCTCC,-0.12
AGCCTGAT,-0.128
GTCCCATA,-0.0965
GGTTATTA,0.0463
TAACTTAA,-0.0924
CTTTCAAA,0.0604
CAAGCTGA,-0.272

# Block 3
# Target: Fragile X messenger ribonucleoprotein 1, C-terminal low-complexity region (Fmr1, Mus musculus, UniProt P35922)
# Technique: RNA Bind-n-Seq
# Form: RNA
# Medium: in vitro
# Tested at: 200 nM
# Notes: whole 134-nt RNA, ends assumed
# Added: 150 mM LiCl
# Reference: input library
# Direction: higher = stronger binding
# Library: 7-deaza-guanosine replaces G
# Shared flanks, not repeated: GGGAGUUCUACAGUCCGACGAUC … UGGAAUUCUCGGGUGUCAAGG
Sequence,log2 enrichment
UCAAGUCCUGUGCUACACAUCGUAUGUACCGAAUCGGGGUUGGGUUGGGUUGGGGAAAGUAUUAUGUUACGCCGUUCGGAUCUGCACUUC,0.161
GUCCUGUGCUACACAUCGUAUGUACCGAAUCGGGGAAAAGGGAAAAGGGGAAAAGGGGAAAGUAUUAUGUUACGCCGUUCGGAUCUGCAC,0.862
CAAGUCCUGUGCUACACAUCGUAUGUACCGAAUCGGGGUUGGGGUUGGGGUUGGGGAAAGUAUUAUGUUACGCCGUUCGGAUCUGCACUU,-0.855
CAAGUCCUGUGCUACACAUCGUAUGUACCGAAUCGGGGCCCGGGCCCGGGCCCGGGAAAGUAUUAUGUUACGCCGUUCGGAUCUGCACUU,-1.74
CCUCAAGUCCUGUGCUACACAUCGUAUGUACCGAAUCGGGAGGGAGGGAGGGAAAGUAUUAUGUUACGCCGUUCGGAUCUGCACUUCCAG,-0.974
CUCAAGUCCUGUGCUACACAUCGUAUGUACCGAAUCGGGAAGGGAAGGGAAGGAAAGUAUUAUGUUACGCCGUUCGGAUCUGCACUUCCA,-0.459
CACAGACAACACGCACCCACACAGACACAGAGGGAAGGGGUUGGGAUGGGGACAGGGUGCACAGCAGGGCGGGGUAGGAACCCAGCCCCU,1.53
GCAGGAAGUAAAAACAAAUGGACAUGCUUCGGAUAGUGGCAGGGGUGGGGGUUGCUAAGGAAAGGGUGGGAUGGGAGUGGGUAAAGAGUU,1.71
UGGCAGAGAAAUUGCAGCUGCAGGAGCAGCUCCAGGCAGAAACCGAGCUGUGUGCCGAGGCUGAGGAGCUCCGGGCCCGCCUGACCGCCA,-1.23
CCUCAAGUCCUGUGCUACACAUCGUAUGUACCGAAUCGGCGGCGGGGCGGGGAAAGUAUUAUGUUACGCCGUUCGGAUCUGCACUUCCAG,-0.053
CUCAAGUCCUGUGCUACACAUCGUAUGUACCGAAUCGGAGGUGGAAAAAAAGGAAAGUAUUAUGUUACGCCGUUCGGAUCUGCACUUCCA,-0.842

# Block 4
# Target: RNA binding protein fox-1 homolog 2, RRM domain, GST-SBP tag (RBFOX2, Homo sapiens, UniProt O43251-10, residues 100-194)
# Technique: RNA Bind-n-Seq
# Form: RNA
# Medium: in vitro
# Tested at: 365 nM
# Notes: natural RNA segment, single round, ends assumed
# Reference: no-protein control
# Direction: higher = stronger binding
# Shared flanks, not repeated: GGGAGUUCUACAGUCCGACGAUC … UGGAAUUCUCGGGUGCCAA
# Target sequence (chain): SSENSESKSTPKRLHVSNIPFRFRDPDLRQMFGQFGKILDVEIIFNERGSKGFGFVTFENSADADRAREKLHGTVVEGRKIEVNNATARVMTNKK
Sequence,RBNS enrichment (R)
GGCGGUGUGGAUGGCUGGCCCUCAUCCUACCUGUGUCUUUAUUGCUUUGAUCACCACAGUCUCUAACUUGCUGCUUUCUCCAGAAGCCUUUUUAUGUAUGGGUUAGAAAC,0.656
GCAGUUAUCCGUCUUGGCAGGAGGGGUUCUGGGGUUCGGGCUGGAUAGCAGAGGAGAGGGAUGAGCCCUGCGUUUAUUUCCCUUCUGCUCGUCCUUUUCCAGGACACAAU,0.21
AUAAAUAACUAAGUACAAAGCACAGUUGUAACUACCUGAAAUAUGAAGAUCCAGUUUCAUACAAACAUUUGUAUGAUGUGAAUAGUUGAUGGCAUUUUUUUGUCAUGAAA,0.466
GGCCAUUCUCUGAUGCAGGGCACUUGCUCCACACUCUGGGAACCCAGAUUCACCAGUCUGCCCUGUCACGUAGUUGAAGGAGUUGCAUUUAUCUUUCUGGCUCCUAAUUC,2.42
AAAGGCUGCCCAGAAAAGGAAAAAUAGUUCCCCGCUUCCUGCCGAUGGACCGCAGUGCGCUCUGCUCUGGCGCUUUGUAACUCGCUCCUCCCUCUUCGGGGGCAGACCCC,0.334
UUAUAGGGAAACAAGUGGAGCAGGGACGUGGCUUUAAUUGGAGCACUCGGCUGGGCUGCUUGGGGAGACUCUUCCGUGCGUUCUUCCUCUGGAUAGAACCACCACCUCCU,0.383
UUUAAAUUGUAAGAUUUUUACUGUAUAUUGAUGCAUAGUGUGAUUCAAUAAAUUGCUUGUAAUUUAAAAACUAUUUAAUAUUCAAAAUAAAUAUAGUUAUAUAUUUAUAA,3.24
CUCAAACCUGAAAGCAGAAAUUUUUAGUAGUUGAGUUGCUUUAAGUGAAUUUUAACAAAUAUGACACAGAAAAGGUCAGAUGCUGUUGUAUAAAAUUUUUUACUAGUGUG,0.526
UCAGAACUUGUGGCGUAAGACAAGCCAUUUUCUGGUAUUGGUGGAGAACGGAACCAAAGCUGGGCACCGACUUCUCAUGGAUGCCAGGAACCUGGUCCUCGGGGAAAAAG,0.302
ACCAGGGCAAGUGCAUCUUUGCCUCAACUCCAGGAUUUAGGCCUUAACACACUGGCCAUUCUUAUGUUCCAGAUGGCCCCCAGCUGGUGUCCUGCCCGCCUUUCAUCUGG,1.48
UAUAAUGCAAAGACCAGCUCCUUUGCGGUGGCAGUGCUCUAGGGCUGCCAUUACACGGUCUUGUGAUGUGACUAAAAGCCACUUUGUGACUCCCUUCAUGUAAUCCUCUU,0.325
AGGCUUUCCAACGUUAUCCCUGUAGAGAUCAUCUUUACAGUUCCUCGGGAAAAUGUGAAUGUGCCGCGUUUUGUUUUCAAUAUUGUAUGAAAACAGGAAAAAAAUAAAAC,0.568
